Experimental data of several laboratories.
A part holds a random share of what one study measured. Positions count from the first letter of the parent shown.

Sample 1
Target: CCNB2, cyclin fold, Cln2 fusion (human)
Technique: yeast growth competition, sequencing
Sample: yeast
Setting: weak parent motif
Reference: not given
Direction: higher = stronger binding
Starting sequence: SCAPER docking peptide (human); SNARRSLNFGGST
Variant | normalised enrichment score
SNARWSLNFGGST [R5W] | -0.235
SNARSSLNFGGST [R5S] | 0.502
SNARRSLNFGGSQ [T13Q] | 0.0659
SNARRSLNFGGSR [T13R] | 0.546
SNARRSCNFGGST [L7C] | 0.354
SNARRSLNFGGSH [T13H] | 0.015
SNARMSLNFGGST [R5M] | 0.262
SNARRSLNFDGST [G10D] | -0.0173

Sample 2
Target: RNA binding protein fox-1 homolog 2, RRM domain, GST-SBP tag (RBFOX2, Homo sapiens, UniProt O43251-10, residues 100-194)
Technique: RNA Bind-n-Seq
Form: RNA
Sample: in vitro
Concentration: 365 nM
Setting: natural RNA segment, single round, ends assumed
Reference: no-protein control
Direction: higher = stronger binding
Shared flanks, not repeated: GGGAGUUCUACAGUCCGACGAUC … UGGAAUUCUCGGGUGCCAA
Target sequence (chain): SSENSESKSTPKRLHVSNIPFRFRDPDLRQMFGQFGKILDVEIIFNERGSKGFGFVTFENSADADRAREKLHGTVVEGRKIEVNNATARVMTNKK
Sequence | RBNS enrichment (R)
GGUUCACUUGAUUGUCUGUAUUUCUGUGUGGUUGUAGCAAGGACUCAGCCUCAUGUAGCACGAAUAGGGGUGUGGUUCAUGGCGUGUUGACCCAGCAGAGCACUCCCUCC | 3.95
UGAAAGCCCUGACUUGGUUCUUGGCUUCUACUGUACUAGUUACUAGUUACUGGUACUGUUGCCAAGCAAUCUGCUUGGAAUUUGUGGAUCCCUGCUGUUCCCUAAUCCCA | 0.202
AGGGAAAUAGAAGCCCGUUCUUUCUUACUGCCCCUGGAGGGAGCAUGGCGCUAGGGCUCUCAGCCUCCUAGAAGGAAGGGACUAAGGAGACGGGCACAGACUUGCGUCAU | 1.16
UAGAACCCUUCUGCUUUCUAUUACCCCUCAUUUAAAAUGUAAACUCUUCACCUUGGUUUAUGAGAACUGGUUCUUGCCUUCCCCUUGAACCUCAUUAAAUGGUGAUUUCU | 1.12
AGUGACCCCAGGUUUAGCAUCGUCCUAUACUGUUCCCUCCACUCCUCCAUGACCCUCUGAGUGAUGGUUCUUUUGCGCCCUGUAGCUGUUCUAGGAUAGGAUGCAUGUUA | 5.1
AAACAGGUAUAUGGAUUUAUCAAGGAGGGCAUUGGCUGCCCCUGGGGUAUUGCCACGCUGUUGUCUUGCUGCCCAUUCACUCCAUGUGCUGCUGUCCUUCCUUCACUUCA | 0.548
CCCCAUUCAGCCACUUUGUAUUUUACUCCUGGGUCGAUGCACCUCCGACCUUCAGCUUUUCCUAACUGCACUUACGUGGUCUGCAGCAACCUCUGCCCCCUCCUCCCAGA | 1.68
CCGCUGCCAAGGGGGGGAUUGCUCACUUCACGUGCAGUUUGUCCAGUUACUCAGCCCUUUUUAUUUCCUUGUUUGAGAGGUAUGCAACCUUGCCUUUACCCAAACUUUGU | 1.91

Sample 3
Target: Transcriptional repressor CTCF (CTCF, Homo sapiens, UniProt P49711, residues 1-727, full length assumed)
Chain of UniProt P49711 (whole entry, looked up): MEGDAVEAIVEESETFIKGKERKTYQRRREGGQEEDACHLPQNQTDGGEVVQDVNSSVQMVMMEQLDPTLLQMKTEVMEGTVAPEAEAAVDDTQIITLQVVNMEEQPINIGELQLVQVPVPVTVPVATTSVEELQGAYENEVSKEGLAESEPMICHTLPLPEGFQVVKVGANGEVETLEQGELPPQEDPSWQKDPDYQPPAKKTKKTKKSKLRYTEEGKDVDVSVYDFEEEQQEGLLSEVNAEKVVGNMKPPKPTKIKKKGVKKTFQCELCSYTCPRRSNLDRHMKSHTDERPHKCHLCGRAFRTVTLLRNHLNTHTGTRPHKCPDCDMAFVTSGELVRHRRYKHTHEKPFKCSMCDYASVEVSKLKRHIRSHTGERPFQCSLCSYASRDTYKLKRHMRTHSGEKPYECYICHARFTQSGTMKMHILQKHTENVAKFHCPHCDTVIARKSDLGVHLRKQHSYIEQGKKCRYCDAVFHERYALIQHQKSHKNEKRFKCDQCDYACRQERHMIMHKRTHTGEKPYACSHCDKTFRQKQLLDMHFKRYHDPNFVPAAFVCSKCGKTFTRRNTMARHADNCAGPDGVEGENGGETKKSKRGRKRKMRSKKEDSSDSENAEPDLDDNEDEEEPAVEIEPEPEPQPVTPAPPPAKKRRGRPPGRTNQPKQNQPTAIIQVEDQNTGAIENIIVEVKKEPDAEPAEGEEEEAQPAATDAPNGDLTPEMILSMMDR
Technique: protein-binding microarray
Form: double-stranded DNA, one strand shown
Sample: in vitro
Concentration: not given
Setting: k-mer, scored over probes, only values ≥0.25
Direction: higher = stronger binding
Sequence | E-score
GAGTAATA | 0.32
CATTTATA | 0.296
AATTATGA | 0.296
AATTAACT | 0.319
ATACTCAC | 0.274
GCGCCACA | 0.38
TATGTCAA | 0.302

Further values, each from its own experiment
Substance | target | test | system | setting | scale | measurement | result
PhoQ, residues 284 288 289 292 302 303 NSMLDC | PhoP, residues 12 14 15 18 19 YHFSH (Escherichia coli, UniProt P23836) | Sort-seq, refers to: YFP reporter | E. coli | PhoQ-PhoP variant library, with: 10 µM Mg2+ | reference: high Mg2+ state, higher = stronger signaling | fold induction | 2

For quick reference, copied from above (sample 2):
Sequence | RBNS enrichment (R)
UGAAAGCCCUGACUUGGUUCUUGGCUUCUACUGUACUAGUUACUAGUUACUGGUACUGUUGCCAAGCAAUCUGCUUGGAAUUUGUGGAUCCCUGCUGUUCCCUAAUCCCA | 0.202
AGGGAAAUAGAAGCCCGUUCUUUCUUACUGCCCCUGGAGGGAGCAUGGCGCUAGGGCUCUCAGCCUCCUAGAAGGAAGGGACUAAGGAGACGGGCACAGACUUGCGUCAU | 1.16
